# Results pooled from the literature.
# Parts stem from different laboratories: compare values within a part only. “And” joins repeats or separate records; there may be more than shown. Positions count from the first letter of the parent shown.
# Chain of UniProt P35372 (whole entry, looked up): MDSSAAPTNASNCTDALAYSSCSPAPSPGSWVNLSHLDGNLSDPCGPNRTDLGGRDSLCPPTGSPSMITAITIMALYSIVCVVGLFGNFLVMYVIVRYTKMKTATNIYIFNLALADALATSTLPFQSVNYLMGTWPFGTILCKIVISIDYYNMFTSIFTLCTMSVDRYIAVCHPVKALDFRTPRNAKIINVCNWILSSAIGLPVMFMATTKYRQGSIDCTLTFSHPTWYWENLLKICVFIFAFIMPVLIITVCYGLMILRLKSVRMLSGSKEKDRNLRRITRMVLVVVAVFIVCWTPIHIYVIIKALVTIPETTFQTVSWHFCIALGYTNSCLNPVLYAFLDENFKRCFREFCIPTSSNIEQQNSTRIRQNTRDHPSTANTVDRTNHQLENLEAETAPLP
# Chain of UniProt P23975 (whole entry, looked up): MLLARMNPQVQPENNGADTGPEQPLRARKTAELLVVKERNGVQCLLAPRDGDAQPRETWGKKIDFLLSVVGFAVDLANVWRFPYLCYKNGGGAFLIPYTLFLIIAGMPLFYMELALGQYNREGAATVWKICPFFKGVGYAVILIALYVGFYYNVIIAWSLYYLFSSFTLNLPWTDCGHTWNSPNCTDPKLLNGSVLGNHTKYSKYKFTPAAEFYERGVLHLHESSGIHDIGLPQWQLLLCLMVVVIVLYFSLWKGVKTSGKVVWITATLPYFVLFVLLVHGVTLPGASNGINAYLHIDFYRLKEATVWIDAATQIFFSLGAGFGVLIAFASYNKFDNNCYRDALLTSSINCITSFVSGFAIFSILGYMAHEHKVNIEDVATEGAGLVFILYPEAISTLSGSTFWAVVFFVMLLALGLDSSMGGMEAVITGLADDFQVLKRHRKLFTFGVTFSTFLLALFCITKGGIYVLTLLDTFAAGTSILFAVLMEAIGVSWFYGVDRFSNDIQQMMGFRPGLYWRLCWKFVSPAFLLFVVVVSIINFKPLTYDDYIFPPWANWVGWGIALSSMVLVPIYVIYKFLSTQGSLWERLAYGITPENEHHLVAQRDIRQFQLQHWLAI
# Chain of UniProt Q01959 (whole entry, looked up): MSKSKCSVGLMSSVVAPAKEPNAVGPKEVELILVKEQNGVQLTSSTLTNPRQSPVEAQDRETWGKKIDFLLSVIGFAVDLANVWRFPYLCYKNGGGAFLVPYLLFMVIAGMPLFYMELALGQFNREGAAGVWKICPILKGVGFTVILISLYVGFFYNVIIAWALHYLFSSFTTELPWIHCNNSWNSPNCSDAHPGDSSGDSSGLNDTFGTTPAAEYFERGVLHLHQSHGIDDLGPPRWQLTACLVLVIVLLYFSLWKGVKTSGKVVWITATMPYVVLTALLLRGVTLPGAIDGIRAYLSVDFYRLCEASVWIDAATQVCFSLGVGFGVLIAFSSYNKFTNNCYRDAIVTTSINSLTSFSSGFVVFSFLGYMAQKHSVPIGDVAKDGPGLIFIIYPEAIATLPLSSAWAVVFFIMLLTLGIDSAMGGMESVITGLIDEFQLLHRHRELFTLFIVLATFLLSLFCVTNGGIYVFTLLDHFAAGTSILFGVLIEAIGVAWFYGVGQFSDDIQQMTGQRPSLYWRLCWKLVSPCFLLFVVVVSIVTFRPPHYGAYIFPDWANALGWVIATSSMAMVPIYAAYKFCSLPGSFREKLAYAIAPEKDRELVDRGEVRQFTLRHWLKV
# Chain of UniProt P20309 (whole entry, looked up): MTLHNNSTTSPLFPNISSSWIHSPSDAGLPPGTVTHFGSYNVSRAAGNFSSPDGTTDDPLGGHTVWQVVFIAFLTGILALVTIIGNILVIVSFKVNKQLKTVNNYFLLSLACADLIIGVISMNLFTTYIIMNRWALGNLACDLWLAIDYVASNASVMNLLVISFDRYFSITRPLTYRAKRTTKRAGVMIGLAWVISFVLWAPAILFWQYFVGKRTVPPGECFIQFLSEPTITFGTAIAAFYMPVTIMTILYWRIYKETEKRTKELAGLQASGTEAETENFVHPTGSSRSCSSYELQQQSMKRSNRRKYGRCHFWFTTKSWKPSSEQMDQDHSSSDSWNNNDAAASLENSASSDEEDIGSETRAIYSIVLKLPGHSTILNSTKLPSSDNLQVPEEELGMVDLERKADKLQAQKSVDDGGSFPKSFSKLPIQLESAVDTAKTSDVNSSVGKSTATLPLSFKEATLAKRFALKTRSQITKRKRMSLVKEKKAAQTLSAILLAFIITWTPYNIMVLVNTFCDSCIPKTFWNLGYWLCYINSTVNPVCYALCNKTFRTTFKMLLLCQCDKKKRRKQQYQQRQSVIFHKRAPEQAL

# Block 1
# Target: DNA polymerase theta, ATPase domain (POLQ, Homo sapiens, UniProt O75417)
# Chain of UniProt O75417 (whole entry, unmodified, looked up): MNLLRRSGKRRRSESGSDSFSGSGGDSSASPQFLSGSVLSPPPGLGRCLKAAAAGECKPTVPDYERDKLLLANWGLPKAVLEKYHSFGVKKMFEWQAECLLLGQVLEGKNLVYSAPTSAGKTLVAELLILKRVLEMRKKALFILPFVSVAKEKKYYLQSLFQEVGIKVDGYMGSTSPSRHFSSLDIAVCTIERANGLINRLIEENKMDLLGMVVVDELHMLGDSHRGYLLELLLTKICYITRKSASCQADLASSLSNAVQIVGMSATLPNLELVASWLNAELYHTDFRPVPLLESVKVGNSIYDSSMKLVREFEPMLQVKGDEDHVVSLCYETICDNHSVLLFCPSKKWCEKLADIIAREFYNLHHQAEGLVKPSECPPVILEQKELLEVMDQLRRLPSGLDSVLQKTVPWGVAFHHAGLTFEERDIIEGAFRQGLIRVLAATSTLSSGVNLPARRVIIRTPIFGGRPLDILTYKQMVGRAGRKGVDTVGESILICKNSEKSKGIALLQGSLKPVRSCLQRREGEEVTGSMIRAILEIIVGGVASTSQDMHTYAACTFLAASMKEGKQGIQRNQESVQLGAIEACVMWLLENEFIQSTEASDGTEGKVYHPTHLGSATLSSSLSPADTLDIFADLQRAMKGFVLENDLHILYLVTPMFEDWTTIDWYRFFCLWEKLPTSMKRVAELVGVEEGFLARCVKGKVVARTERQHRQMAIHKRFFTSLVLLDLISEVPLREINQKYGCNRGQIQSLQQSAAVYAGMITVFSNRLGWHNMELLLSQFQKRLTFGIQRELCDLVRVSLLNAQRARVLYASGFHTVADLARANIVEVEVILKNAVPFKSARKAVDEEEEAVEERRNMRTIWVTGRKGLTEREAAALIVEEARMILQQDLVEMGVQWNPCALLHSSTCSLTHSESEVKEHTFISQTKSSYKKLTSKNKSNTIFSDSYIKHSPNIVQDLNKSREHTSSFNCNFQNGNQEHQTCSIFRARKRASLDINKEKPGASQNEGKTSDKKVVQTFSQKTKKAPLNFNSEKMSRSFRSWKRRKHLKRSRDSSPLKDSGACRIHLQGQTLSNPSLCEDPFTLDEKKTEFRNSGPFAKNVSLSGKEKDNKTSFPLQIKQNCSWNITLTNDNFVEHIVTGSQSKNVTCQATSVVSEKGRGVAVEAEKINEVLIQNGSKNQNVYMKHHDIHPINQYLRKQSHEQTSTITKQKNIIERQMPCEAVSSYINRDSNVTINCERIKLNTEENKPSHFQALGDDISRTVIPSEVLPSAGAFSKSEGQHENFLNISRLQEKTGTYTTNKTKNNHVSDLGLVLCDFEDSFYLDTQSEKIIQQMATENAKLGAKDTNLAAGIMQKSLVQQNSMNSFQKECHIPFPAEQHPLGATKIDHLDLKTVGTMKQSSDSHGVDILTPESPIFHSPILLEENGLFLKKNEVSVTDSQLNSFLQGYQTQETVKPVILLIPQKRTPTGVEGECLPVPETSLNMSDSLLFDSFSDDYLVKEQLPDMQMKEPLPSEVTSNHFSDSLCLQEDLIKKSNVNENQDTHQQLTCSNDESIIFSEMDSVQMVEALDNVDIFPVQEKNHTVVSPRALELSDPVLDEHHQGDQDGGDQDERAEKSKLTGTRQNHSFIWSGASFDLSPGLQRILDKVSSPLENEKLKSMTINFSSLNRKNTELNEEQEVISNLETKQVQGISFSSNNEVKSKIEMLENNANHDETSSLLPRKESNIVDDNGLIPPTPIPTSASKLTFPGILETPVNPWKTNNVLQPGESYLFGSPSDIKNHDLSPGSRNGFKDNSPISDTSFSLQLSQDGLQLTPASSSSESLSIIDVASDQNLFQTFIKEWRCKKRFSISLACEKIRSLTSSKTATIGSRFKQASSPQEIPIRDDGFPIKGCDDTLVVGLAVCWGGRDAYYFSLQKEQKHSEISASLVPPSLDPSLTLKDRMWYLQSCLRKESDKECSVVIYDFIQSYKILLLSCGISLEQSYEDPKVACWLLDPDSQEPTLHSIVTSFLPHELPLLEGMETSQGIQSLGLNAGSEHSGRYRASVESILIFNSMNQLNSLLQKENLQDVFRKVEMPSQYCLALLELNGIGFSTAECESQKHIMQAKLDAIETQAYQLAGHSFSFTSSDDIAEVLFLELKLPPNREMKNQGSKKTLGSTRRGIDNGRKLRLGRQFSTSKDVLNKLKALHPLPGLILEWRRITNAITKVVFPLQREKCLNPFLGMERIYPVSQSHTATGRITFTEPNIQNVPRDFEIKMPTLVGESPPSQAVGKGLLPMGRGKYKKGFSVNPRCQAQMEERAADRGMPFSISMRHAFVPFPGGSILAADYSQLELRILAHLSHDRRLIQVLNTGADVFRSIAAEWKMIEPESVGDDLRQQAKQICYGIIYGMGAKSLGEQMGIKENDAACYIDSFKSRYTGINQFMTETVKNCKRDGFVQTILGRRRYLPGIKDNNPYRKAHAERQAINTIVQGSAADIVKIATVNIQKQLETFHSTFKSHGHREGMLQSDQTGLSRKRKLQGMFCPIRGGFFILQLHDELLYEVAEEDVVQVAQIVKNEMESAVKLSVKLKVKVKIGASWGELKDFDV
# Observed: enzyme activity
# Action: inhibitor
# Concentration: 77 µM
Structure (SMILES),remaining activity [%]
Clc1cc(I)cc(Cl)c1NC1=NCCN1,138
NCC(CP(=O)(O)O)c1ccc(Cl)cc1 (centres unmarked),97.7
CN1C[C@H](CO)C=C2c3cccc4[nH]cc(c34)C[C@H]21,100

# Block 2
# Target: vanadate, free oxyanion
# Method: microfluidic competitive inhibition
# Medium: in vitro, cell-free expressed
# Concentration: not given
# Setting: derived from inhibition constants, unchanged parent 676 nM
# Direction: lower = stronger binding
# Starting sequence: PafA, mature enzyme, eGFP fusion (Elizabethkingia meningoseptica, UniProt Q9KJX5); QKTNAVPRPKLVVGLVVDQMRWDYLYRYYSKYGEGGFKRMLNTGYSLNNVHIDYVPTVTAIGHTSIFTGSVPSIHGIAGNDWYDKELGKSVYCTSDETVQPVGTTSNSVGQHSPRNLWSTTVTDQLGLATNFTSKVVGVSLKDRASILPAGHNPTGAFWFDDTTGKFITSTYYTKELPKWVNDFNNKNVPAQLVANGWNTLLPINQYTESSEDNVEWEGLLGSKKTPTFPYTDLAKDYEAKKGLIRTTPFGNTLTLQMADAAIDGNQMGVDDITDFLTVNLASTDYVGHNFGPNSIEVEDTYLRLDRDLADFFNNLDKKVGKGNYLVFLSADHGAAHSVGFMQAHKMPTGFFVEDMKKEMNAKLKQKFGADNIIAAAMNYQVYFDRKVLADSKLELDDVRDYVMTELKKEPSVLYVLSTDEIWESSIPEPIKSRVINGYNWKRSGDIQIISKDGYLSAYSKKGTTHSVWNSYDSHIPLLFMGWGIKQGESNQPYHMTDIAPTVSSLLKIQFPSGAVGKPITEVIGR
Change,oxyanion analog dissociation constant
A145V,143 µM
A458G,649 nM
Q257V,612 nM
N131G,515 nM
Y415V,957 nM
D498G,383 nM
G288A,589 nM
R21G,849 nM

# Block 3
# SMILES: CO[C@@H](C)c1c(Nc2ccc([C@@H](N(C)C(=O)C3CCS(=O)(=O)CC3)C(F)(F)F)cc2)cnc2cc(Cl)nn12
# Concentration: 10 µM
target,assay,inhibition
"Sodium-dependent serotonin transporter (SLC6A4, Homo sapiens, UniProt P31645)","binding, radioligand binding",14.6%
"Sodium-dependent noradrenaline transporter (SLC6A2, Homo sapiens, UniProt P23975)","binding, radioligand binding",-20.6%
"Muscarinic acetylcholine receptor M3 (CHRM3, Homo sapiens, UniProt P20309)","binding, radioligand binding",-2.58%
"Mu-type opioid receptor (OPRM1, Homo sapiens, UniProt P35372)","binding, radioligand binding",6.39%
"Sodium-dependent dopamine transporter (SLC6A3, Homo sapiens, UniProt Q01959)","binding, radioligand binding",-18.1%
"5-hydroxytryptamine receptor 1A (HTR1A, Homo sapiens, UniProt P08908)",ligand displacement,-11.6%
"D(1B) dopamine receptor (DRD5, Homo sapiens, UniProt P21918)","binding, radioligand binding",4.72%
"Kappa-type opioid receptor (OPRK1, Homo sapiens, UniProt P41145)","binding, radioligand binding",29.4%

# Further values, each from its own experiment
Compound,target or system,assay,system,conditions,quantity,result
CC(CCc1ccccc1)NC(C)C(O)c1ccc(O)cc1 (centres unmarked),HaCaT,,,"100 µM, 60 h",viability,79.2%
COc1cc2c(cc1O)CC1c3c(cc(O)c(OC)c3-2)CCN1C (centres unmarked),,,"human, microsomes or S9","2 µM, 0.5 h",remaining compound,76%
c1ccc(Oc2ccc(Nc3c4c(nc5ccccc35)CCC4)cc2)cc1,HepG2,resazurin,,"33.32 µM, 48 h",cytotoxicity,48% and 42%
CNC[C@H](O)c1ccc(O)c(O)c1,chymotrypsin,enzyme activity,,concentration not given,inhibition,5.3%
